Measurements gathered from unrelated publications.
Protocols differ between the studies behind these lines. ± gives the spread as reported.

`O=C(NCc1c(F)cc(F)cc1F)c1cn2c(c(O)c1=O)C(=O)N1[C@H]3CC[C@H](C3)O[C@@H]1C2` has a maximum response of -19.5% (biotinylated rabbit IgG; 11-point dose-response, protein A and streptavidin binding).
`O=C(Nc1cccnn1)N1CCN([C@@H]2CCOc3cc(C(F)(F)F)ccc32)CC1` has an inhibition of -7% (GABAA; Cerep BioPrint; 20 µM).
For `Cn1c(=O)c2[nH]cnc2n(C)c1=O`, the lowest IC30 was over 30 µM (seizure ion channel panel; ion current, inhibitor; lowest across channels).
The IC50 of `CCOP(=S)(OCC)SCn1c(=O)oc2cc(Cl)ccc21` is reported as 7.79 µM (nanobody A4; binding, ic-ELISA).
For `CCCCCCCCCCCCCCCC[n+]1ccn(Cc2ccccc2)c1C`, the maximum response was 19.8% (biotinylated rabbit IgG; 11-point dose-response, protein A and streptavidin binding).
The IC50 of `CCOP(=S)(OCC)Oc1nc(Cl)c(Cl)cc1Cl` is reported as over 10 µM (nanobody A4; binding, ic-ELISA).
Under IFNβ induction, `C#Cc1nc(C(=O)N2CCC(NC(=O)c3cnc(-c4ccccc4)s3)(c3nc4ccccc4n3C)CC2)cs1` is recorded as “inhibited” (STING (human); inhibitor; primary human CD14+ monocytes; 2.5 µM, with: diABZI).
`O=C(Cc1ccccc1)NC1CCOC1=O` (stereo not shown) gave an inhibition of 11% (ExpR2 (Pectobacterium carotovorum); cellulase activity, antagonist; Pectobacterium carotovorum, single-ExpR2 strain; 5 µM, 4 h, with: OHHL 5 µM).
`Brc1ccc(Oc2ccc(Br)cc2Br)c(Br)c1` gave a cross-reactivity of under 0.1% (camel nanobody T2; binding, competitive ELISA; concentration not given).
`CCCCCCCCCC(=O)CC(=O)N[C@H]1CCOC1=O` has an inhibition of 73% (ExpR2 (Pectobacterium carotovorum); cellulase activity, antagonist; Pectobacterium carotovorum, single-ExpR2 strain; 5 µM, 4 h, with: OHHL 5 µM).
`Nc1nc2c(ncn2[C@@H]2O[C@@H]3COP(=O)(O)O[C@H]4[C@@H](O)[C@H](n5cnc6c(N)ncnc65)O[C@@H]4COP(=O)(O)O[C@@H]2[C@@H]3O)c(=O)[nH]1`: “persistence of STING oligomerization” at least 2 h (STING (human); Blue-Native PAGE; HeLa Kyoto with inducible STING; concentration not given).
The maximum response of `COC(=O)Nc1nc2ccc(Sc3ccccc3)cc2[nH]1` is reported as -3.09% (biotinylated rabbit IgG; 11-point dose-response, protein A and streptavidin binding).
For `CC(=O)Oc1ccccc1C(=O)O`, the lowest IC30 was over 30 µM (seizure ion channel panel; ion current, inhibitor; lowest across channels).
For `O=C(CCc1ccc(Br)cc1)N[C@H]1CCOC1=O`, the activation was 8% (ExpR2 (Pectobacterium carotovorum); cellulase activity, agonist; Pectobacterium carotovorum, single-ExpR2 strain; 200 µM, 4 h; reference: OHHL).
With `COP(=S)(OC)Oc1ccc([N+](=O)[O-])c(C)c1` the cross-reactivity was under 1% (nanobody A4; ic-ELISA; concentration not given; reference: coumaphos IC50 over compound IC50, mass basis).
Under transcript elongation, `CC[C@H](C)[C@H](NC(=O)CNC(=O)[C@@H](NC(=O)[C@H](Cc1ccccc1)NC(=O)[C@H](Cc1ccc(O)cc1)NC(=O)[C@@H]1CCC(=O)NCC(=O)NCC(=O)N[C@@H](C)C(=O)NCC(=O)N[C@@H](Cc2c[nH]cn2)C(=O)N[C@@H](C(C)C)C(=O)N2CCC[C@H]2C(=O)N1)C(C)C)C(=O)NCC(=O)N[C@H](C(=O)N1CCC[C@H]1C(=O)N[C@H](C(=O)N[C@@H](CO)C(=O)N[C@@H](Cc1ccccc1)C(=O)N[C@@H](Cc1ccc(O)cc1)C(=O)NCC(=O)O)[C@@H](C)CC)[C@@H](C)O` is recorded as “inhibited” (Pseudomonas aeruginosa RNA polymerase; inhibitor).
For `COc1cc(Nc2ncc(F)c(Nc3ccc4c(n3)NC(=O)C(C)(C)O4)n2)cc(OC)c1OC`, the IC50 was over 10 µM (central benzodiazepine receptor; binding).
For `Nc1c(Br)cc(Br)cc1CN[C@H]1CC[C@H](O)CC1`, the lowest IC30 was 2.99 µM (seizure ion channel panel; ion current, inhibitor; lowest across channels).
`O=C(Cc1cccc(Br)c1)N[C@H]1CCOC1=O` gave an activation of 97% (ExpR2 (Pectobacterium carotovorum); cellulase activity, agonist; Pectobacterium carotovorum, single-ExpR2 strain; 200 µM, 4 h; reference: OHHL).
`CCCCCC/C=C\CCCCCCCC(=O)O` has a maximum response of 4.4% (biotinylated rabbit IgG; 11-point dose-response, protein A and streptavidin binding).
`C[N+](C)(C)CCOS(=O)(=O)[O-]` gave a ΔTm of 8 °C (SAR11_0797 protein (Candidatus Pelagibacter ubique); thermal stabilisation, differential scanning fluorimetry).
`C/C1=C/C[C@@H](/C(C)=C/c2csc(C)n2)OC(=O)C[C@H](O)C(C)(C)C(=O)[C@H](C)[C@@H](O)[C@@H](C)CCC1` gave an EC50 of 0.44 ± 0.02 µM (tubulin; tubulin assembly, stimulator; cell-free).
With `CCOP(=S)(OCC)Oc1ccc([N+](=O)[O-])cc1` the cross-reactivity was 162% (nanobody A4; ic-ELISA; concentration not given; reference: coumaphos IC50 over compound IC50, mass basis).
For `CC(C)c1cccc(=O)c(O)c1`, the maximum response was -21.4% (biotinylated rabbit IgG; 11-point dose-response, protein A and streptavidin binding).
With `O=C(Cc1cccc([N+](=O)[O-])c1)N[C@H]1CCOC1=O` the inhibition was -4% (ExpR2 (Pectobacterium carotovorum); cellulase activity, antagonist; Pectobacterium carotovorum, single-ExpR2 strain; 5 µM, 4 h, with: OHHL 5 µM).
With `CCOP(=S)(OCC)O/N=C(\C#N)c1ccccc1` the IC50 was 1.55 µg/mL (nanobody A4; binding, ic-ELISA; with: H1-OVA coating antigen).
`O=C(O)c1ccccn1` gave a maximum response of 24.1% (biotinylated rabbit IgG; 11-point dose-response, protein A and streptavidin binding).
`O=C(Cc1ccc(Cl)cc1)N[C@H]1CCOC1=O` has an activation of 29% (ExpR2 (Pectobacterium carotovorum); cellulase activity, agonist; Pectobacterium carotovorum, single-ExpR2 strain; 200 µM, 4 h; reference: OHHL).
With `Oc1cccc2ccccc12` the inhibition was over 50% (human UGT; glucuronidation; human liver microsomes; 200 µM, 60 min, with: FBI-COOH 50 µM).
For `CC(=O)Nc1ccc(O)cc1`, the lowest IC30 was over 30 µM (seizure ion channel panel; ion current, inhibitor; lowest across channels).
The activation of `O=C(Cc1ccccc1I)N[C@H]1CCOC1=O` is reported as 24% (ExpR2 (Pectobacterium carotovorum); cellulase activity, agonist; Pectobacterium carotovorum, single-ExpR2 strain; 200 µM, 4 h; reference: OHHL).
Under activity, `CO[C@H]1/C=C\C=C(/C)C(=O)NC2=CC(=O)C(NCCN(C)C)=C(C[C@@H](C)C[C@H](OC)[C@H](O)[C@@H](C)/C=C(\C)[C@@H]1OC(N)=O)C2=O` is recorded as “inactive” (MyBP-C; MYBPC3 iPSC-derived cardiomyocytes (human); concentration not given, fresh powder retest).
For `O=C(Cc1ccc(Br)cc1)N[C@H]1CCOC1=O`, the activation was 25% (ExpR2 (Pectobacterium carotovorum); cellulase activity, agonist; Pectobacterium carotovorum, single-ExpR2 strain; 200 µM, 4 h; reference: OHHL).
`CCOP(=S)(OCC)Oc1ccc(Cl)cc1Cl` gave an IC50 of over 10 µM (nanobody A4; binding, ic-ELISA).
`NC(CC1(C(=O)O)CC2OC(CO)C(O)C(N)C2O1)C(=O)O` (stereo not shown) has a current amplitude of under 10 pA (GluK1/GluK4 heteromer; ion current, agonist, whole-cell patch-clamp; 30 µM).
`CCOP(=S)(OCC)Oc1ccc2c(C)c(Cl)c(=O)oc2c1` gave a cross-reactivity of 100% (nanobody A4; ic-ELISA; concentration not given; reference: coumaphos IC50 over compound IC50, molar basis).
The maximum response of `C[C@H]1CO[C@@H]2Cn3cc(C(=O)NCc4ccc(F)cc4F)c(=O)c(O)c3C(=O)N12` is reported as -2.47% (biotinylated rabbit IgG; 11-point dose-response, protein A and streptavidin binding).
Under “fraction of kinome inhibited”, `CN(C)C(=O)c1cc2cnc(Nc3ccc(-c4ccc5c(=O)cc(N6CCOCC6)oc5c4)cc3)nc2n1C1CCCC1` is recorded as 1.5% (kinase panel; binding, KINOMEscan; 1.0 µM).
`CCOP(=S)(OCC)SCCSCC` gave a cross-reactivity of under 1% (nanobody A4; ic-ELISA; concentration not given; reference: coumaphos IC50 over compound IC50, mass basis).
For `Cc1cc(C2CCCCC2)n(O)c(=O)c1`, the maximum response was -32.8% (biotinylated rabbit IgG; 11-point dose-response, protein A and streptavidin binding).
